Measured values pooled from the literature.
Several values in a cell are separate wells, animals, samples, runs or records. Numbers after ± are the reported error. No end group written: not given here.
B1: bicyclic; chain AATCHCRRSCYSTEYSYGTCTVMGINHRFCCL (also: bicyclic or more (positions not given here))
B2: disulfide; chain GLPVCGETCVGGTCNTPGCTCSWPVCTRN (disulfide (positions not given here))
Sequence of UniProt Q64663 (whole entry, unmodified, looked up): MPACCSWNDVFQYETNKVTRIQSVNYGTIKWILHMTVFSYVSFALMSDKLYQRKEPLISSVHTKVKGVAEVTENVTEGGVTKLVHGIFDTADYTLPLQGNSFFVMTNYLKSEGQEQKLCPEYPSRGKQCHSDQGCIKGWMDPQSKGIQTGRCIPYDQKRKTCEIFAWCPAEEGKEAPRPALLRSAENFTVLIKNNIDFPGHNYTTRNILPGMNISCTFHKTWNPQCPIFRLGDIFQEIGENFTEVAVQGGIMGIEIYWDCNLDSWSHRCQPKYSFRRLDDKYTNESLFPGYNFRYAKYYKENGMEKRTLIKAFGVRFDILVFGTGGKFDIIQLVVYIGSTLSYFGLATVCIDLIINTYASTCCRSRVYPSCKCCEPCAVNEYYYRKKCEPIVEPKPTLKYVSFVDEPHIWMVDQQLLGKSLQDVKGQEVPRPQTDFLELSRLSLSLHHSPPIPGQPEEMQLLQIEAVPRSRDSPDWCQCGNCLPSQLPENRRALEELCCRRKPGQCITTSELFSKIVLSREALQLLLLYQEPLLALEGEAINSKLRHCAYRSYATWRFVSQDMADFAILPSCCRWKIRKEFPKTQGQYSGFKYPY

| Substance | target or system | test | system | conditions | scale | quantity | result |
| --- | --- | --- | --- | --- | --- | --- | --- |
| Peginesatide | UT7/EPO | tyrosine phosphorylation, LC-MS/MS phosphoproteomics, GluC, refers to: FCGR2A tyrosine 288 | – | 10 nM, 15 min, together with: 10 U/mL EPO | reference: vehicle | phosphorylation level | 9.3 fold |
| KTKEGVVHGVATVA | – | far-UV circular dichroism, refers to: α-helices | peptide, PBS | 10 µM, pH 7.4, 25 °C | – | secondary structure content | 0% |
| CTOP | – | RP-HPLC | HALO Peptide ES-C18 column | 25 µM, formic acid/methanol, 10 min gradient | – | retention time | 8.04 min |
| coproporphyrin III | – | – | healthy human volunteers, spot urine | dose not given, pre-dose, median, together with: ezetimibe plus rifampin | – | urine concentration | 6.7 nM |
| 11-deoxycorticosterone | – | stopped-flow global kinetic fitting | – | 4-state closed model (best), 10-fold adrenodoxin excess, together with: substrate binding k-3 | – | rate constant | 197 ± 10.3 min⁻¹ |
| B1 | – | sedimentation velocity AUC | 10 mM sodium phosphate | 160 µM, pH 7.4, 20 °C | – | sedimentation coefficient S20,w | 0.847 S |
| FNA / CGLSGLGVA-NH2 ([18F]FNA-labelled, C-amide) | – | ex vivo gamma counting | peptide, healthy mouse, blood | 60 min post injection | – | tissue uptake | 0.87 %ID/g |
| Polymyxin B | – | untargeted LC-MS metabolomics, refers to: ATP | Sprague-Dawley rat, right cerebral cortex | intracerebroventricular, 0.75 mg/kg, 1 h | reference: NaCl control | log2 fold change | -4.2 |
| caspofungin | – | – | adult ICU patients, mITT, serum | dose not given, day 4 | – | magnesium | 0.7 mmol/L |
| regorafenib N-β-glucuronide | – | – | mouse plasma | 750 ng/mL, 6 months, -80 °C | – | long-term stability accuracy | 90.9% |
| GSGAGKETSF | human SCRIB PDZ3-4 tandem (MBP fusion) | surface plasmon resonance | peptide | concentration not given | higher = stronger binding | normalised SPR binding response | 97.5 normalised RU |
| B2 | – | RP-HPLC | NH4HCO3 without redox agents | pH 8.5, room temperature, oxidative folding | – | conversion to native product | not detected |
| enterolactone sulfate | – | – | human, cerebrospinal fluid | dose not given, mean | – | CSF concentration | not detected |
| colistin | Pseudomonas aeruginosa | – | clinical isolate RKI 402/14 | – | – | MIC | ≤ 1 µg/mL |
| Teicoplanin | – | refers to: stability | human serum | 2 days, room temperature, high QC | – | recovery | 98.9% |
| LVHYTHCGSLGV | Epstein-Barr virus | – | peptide, EBV-infected humanized B-NDG mice | 20 mg/kg, day 42 | – | body weight | 19.6 g and 19.7 g |
| monomethyl auristatin F hydroxypropylamide | – | refers to: sum of compound and MMAF | Sprague Dawley rat, feces | intravenous, dose not given, 120 h, dosed as NaPi2b ADC, recovery-corrected | reference: dose | excreted in feces | < 2% |
| GPSQPTYPGDDAAVEDLIRFYDNLQQYLNVVTRHRY | – | CD thermal denaturation | peptide, sodium phosphate buffer with NaCl | 30 µM, pH 7.4 | – | melting temperature | 49.5 ± 2 °C |
| coproporphyrin I | – | – | human, plasma | concentration not given, control day | – | lowest mean plasma concentration | 0.653 ± 0.041 nM |
| Fluorescein isothiocyanate | – | – | PSP-2 condensates in DMEM | concentration not given, together with: cargo 5 µM | – | encapsulation efficiency | > 90% |
| BzATP | P2X purinoceptor 7 (P2rx7, Rattus norvegicus, UniProt Q64663, R125A) | ion current, agonist, two-electrode voltage clamp | Xenopus oocytes | 100 µM | – | normalized current | 0.974 and 1 |
| GSGAGRETEV | human SCRIB PDZ3-4 tandem (MBP fusion) | automated holdup | peptide, crude extract | concentration not given, corrected by standard peak, unit not given | reference: biotin control resin, higher = stronger binding | binding intensity | 0.974 |
| daptomycin | – | – | stock solution | 5 months, -40 °C | – | recovery | 108% |
| Rilpivirine docusate | – | – | aqueous buffer | pH 6.8, below quantification limit | – | equilibrium solubility | 0.08 ± 0.01 µg/mL |
| ESLSLSLSLSLSLEGTVFTSWEEYLDWV | – | AFM | peptide, dried on mica | 0.1 wt% | – | nanofiber height | 2.2 ± 0.2 nm |
| abaloparatide | – | – | fracture-bearing mice, fractured femur | 40 nmol/kg | – | half-life at fracture site | 8.8 h |

For quick reference, copied from above:
| Substance | target or system | test | system | conditions | scale | quantity | result |
| --- | --- | --- | --- | --- | --- | --- | --- |
| colistin | Pseudomonas aeruginosa | – | clinical isolate RKI 402/14 | – | – | MIC | ≤ 1 µg/mL |
| Teicoplanin | – | refers to: stability | human serum | 2 days, room temperature, high QC | – | recovery | 98.9% |
